Experimental data from different studies.
Protocols differ between the studies behind these lines.
B1: enzyme (Saccharomyces cerevisiae, UniProt P46969); chain MVKPIIAPSILASDFANLGCECHKVINAGADWLHIDVMDGHFVPNITLGQPIVTSLRRSVPRPGDASNTEKKPTAFFDCHMMVENPEKWVDDFAKCGADQFTFHYEATQDPLHLVKLIKSKGIKAACAIKPGTSVDVLFELAPHLDMALVMTVEPGFGGQKFMEDMMPKVETLRAKFPHLNIQVDGGLGKETIPKAAKAGANVIVAGTSVFTAADPHDVISFMKEEVSKELRSRDLLD
B2: enzyme (Oryza sativa, UniProt Q6ZGQ4); chain ASGPPFSCGAPSSAAFCNPRLPIEQRADDLVSRLTLEEKISQLGDQSPAVDRLGVPAYKWWSEALHGVSNAGRGIHLDGPLRAATSFPQVILTAASFNPHLWYRIGQVIGTEARAVYNNGQAEGLTFWAPNINVFRDPRWGRGQETPGEDPTVTGKYAAVFVRGVQGYALAGAINSTDLEASACCKHFTAYDLENWKGVTRYAFDAKVTAQDLADTYNPPFRSCVEDGGASGIMCSYNRVNGVPTCADYNLLSKTARGDWRFYGYITSDCDAVSIIHDVQGYAKTAEDAVADVLKAGMDVNCGSYVQEHGLSAIQQGKITEQDINRALHNLFAVRMRLGLFNGNPKYNRYGNIGPDQVCTQEHQNLALEAAQHGVVLLKNDANALPLSKSQVSSIAVIGHNANDATRLLGNYFGPPCISVTPLQVLQGYVKDTRFLAGCNSAACNVSSIGEAAQLASSVDYVVLFMGLDQDQEREEVDRLELSLPGMQENLINTVANAAKKPVILVLLCGGPVDVTFAKYNPKIGAILWAGYPGEAGGIAIAQVLFGEHNPGGRLPVTWYPKEFTSVPMTDMRMRADPSTGYPGRTYRFYRGNTVYKFGYGLSYSKYSHHFVANGTKLPSLSSIDGLKAMATAAAGTVSYDVEEIGPETCDKLKFPALVRVQNHGPMDGRHPVLLFLRWPNGAADGGRPASQLIGFQSLHLKSMQTVHVEFEVSPCKHFSRATEDGKKVIDHGSHFMMVGDDEFEMSFTP
B3: enzyme Y414S/Y415A (Methanosarcina mazei, UniProt Q8PVB1); chain MSEQRSVPLREHLLALKPCRHGGLIQETSETYGIPENEILDFSANFNPLGSPFDYPENGLNFEDIIKKSCGKLLEYPDNRYVEFREAAARFVGLGVTPQSIVPGNGSTEIVRLVVESVIEKGDKVLLPWPTFGEYEMQCRITGAEPVCPSQEEVNTLPDEVLEEAKILFICNPNNPTGKLRTREELKVLAERCREHKTLLYVDEAFIELSDPSQSVADLPAENNYVFVMRSLTKDFAIPGIRMGFGIAPPAMADILNTARLSWNLGAIANNTGIALLNIEGGIDSPYLKKAREMILKEGETLKAKIDRIRGFEAGEVNVNFILVDVSKFMLNSSELTARLAARGVLVRDCVSFHGLGKNYIRVAVRTEKENDRLIAAIGDVITEWGREQAKNELQHVIEKASEEGIGGRKTCESAPCHFEGQNCTFCFCPFYPCENEKTGGKWIQSSRGGRVWSCVDCHLVHKKEIAQKILDCLMHEGDTDELVKVAWKEVMEPIL
B4: enzyme (Arabidopsis thaliana, UniProt O80970); chain MKFMKIGSKLDSFKTDGNNVRYVENELASDISVDVEGSRFCLHKFPLLSKCACLQKLLSSTDKNNIDDIDISGIPGGPTAFETCAKFCYGMTVTLSAYNVVATRCAAEYLGMHETVEKGNLIYKIDVFLSSSLFRSWKDSIIVLQTTKPFLPLSEDLKLVSLCIDAIATKACVDVSHVEWSYTYNKKKLAEENNGADSIKARDVPHDWWVEDLCELEIDYYKRVIMNIKTKCILGGEVIGEALKAYGYRRLSGFNKGVMEQGDLVKHKTIIETLVWLLPAEKNSVSCGFLLKLLKAVTMVNSGEVVKEQLVRRIGQQLEEASMAELLIKSHQGSETLYDVDLVQKIVMEFMRRDKNSEIEVQDDEDGFEVQEVRKLPGILSEASKLMVAKVIDSYLTEIAKDPNLPASKFIDVAESVTSIPRPAHDALYRAIDMFLKEHPGITKGEKKRMCKLMDCRKLSVEACMHAVQNDRLPLRVVVQVLFFEQVRAAASSGSSTPDLPRGMGRELRSCGTYGSSRSVPTVMEDEWEAVATEEEMRALKSEIAALKLQEESGRKSMDRAGVTAISKIRSLIMSKKIFGKKVQLQSKGGGEKNNGGGGGGSDSSESLGSMNAAEETAKTATPSRNLTRRVSVS
B5: enzyme H130A (Salinispora arenicola, UniProt A8M783); chain MASTPWISFTTDYGLADGFVAACHGVLARLAPTARVIDVTHLVPPGDVRRGAAVLAQTVPYLPAAVHVAVVDPGVGTARRAIALTAGNGLLVGPDNGLLLDAATALGGVDAAVELTNPDWLGARMSATFAGRDVFAPVAARLALGAPLADAGPAVEPGALVRLPTPLVQPETDGFTAEVLTVDHFGNVQLAATGALLESLPRSLRVAHRPAVHARTFDDAPPGGLLVHVDSAGLVAVAVNGGRAADLLAVTPGDQLRVTAG
B6: CDA (Homo sapiens, UniProt P32320); chain MAQKRPACTLKPECVQQLLVCSQEAKKSAYCPYSHFPVGAALLTQEGRIFKGCNIENACYPLGICAERTAIQKAVSEGYKDFRAIAIASDMQDDFISPCGACRQVMREFGTNWPVYMTKPDGTYIVMTVQELLPSSFGPEDLQKTQ
UniProt P39597, sequence (whole entry, looked up): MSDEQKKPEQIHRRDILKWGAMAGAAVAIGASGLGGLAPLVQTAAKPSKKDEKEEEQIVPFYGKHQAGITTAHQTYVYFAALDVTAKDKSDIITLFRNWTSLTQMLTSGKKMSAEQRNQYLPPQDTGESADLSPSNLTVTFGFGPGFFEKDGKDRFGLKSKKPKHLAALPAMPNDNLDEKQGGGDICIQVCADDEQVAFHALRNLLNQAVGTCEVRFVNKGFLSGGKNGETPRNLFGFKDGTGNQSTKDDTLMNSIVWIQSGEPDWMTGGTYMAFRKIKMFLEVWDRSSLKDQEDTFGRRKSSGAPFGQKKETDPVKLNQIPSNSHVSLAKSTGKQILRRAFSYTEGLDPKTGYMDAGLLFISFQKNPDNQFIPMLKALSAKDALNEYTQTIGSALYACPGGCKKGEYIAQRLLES
UniProt P10632, sequence (whole entry, looked up): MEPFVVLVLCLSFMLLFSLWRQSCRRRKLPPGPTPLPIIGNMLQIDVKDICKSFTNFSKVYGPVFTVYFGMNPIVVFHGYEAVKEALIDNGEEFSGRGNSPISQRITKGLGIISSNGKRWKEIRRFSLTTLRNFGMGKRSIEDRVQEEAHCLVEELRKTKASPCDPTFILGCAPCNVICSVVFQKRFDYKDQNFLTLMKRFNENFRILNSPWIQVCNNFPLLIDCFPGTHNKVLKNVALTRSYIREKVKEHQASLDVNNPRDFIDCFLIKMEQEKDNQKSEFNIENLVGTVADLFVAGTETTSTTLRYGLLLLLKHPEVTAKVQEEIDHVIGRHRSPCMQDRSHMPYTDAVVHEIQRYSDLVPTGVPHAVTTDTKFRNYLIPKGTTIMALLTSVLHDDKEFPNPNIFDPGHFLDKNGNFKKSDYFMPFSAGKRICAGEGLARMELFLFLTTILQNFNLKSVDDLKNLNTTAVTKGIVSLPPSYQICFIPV
UniProt O31986, sequence (whole entry, looked up): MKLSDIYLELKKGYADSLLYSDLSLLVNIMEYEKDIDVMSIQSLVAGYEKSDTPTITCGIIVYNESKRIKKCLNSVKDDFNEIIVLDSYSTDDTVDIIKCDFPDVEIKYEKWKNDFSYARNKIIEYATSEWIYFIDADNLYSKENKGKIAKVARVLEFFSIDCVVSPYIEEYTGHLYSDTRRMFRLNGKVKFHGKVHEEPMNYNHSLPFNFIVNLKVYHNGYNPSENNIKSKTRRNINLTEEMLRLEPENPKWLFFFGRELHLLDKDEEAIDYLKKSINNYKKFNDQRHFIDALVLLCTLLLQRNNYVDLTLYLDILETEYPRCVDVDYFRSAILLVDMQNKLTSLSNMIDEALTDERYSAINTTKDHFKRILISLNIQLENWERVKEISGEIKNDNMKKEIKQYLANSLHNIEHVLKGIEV
UniProt P00327, sequence (whole entry, looked up): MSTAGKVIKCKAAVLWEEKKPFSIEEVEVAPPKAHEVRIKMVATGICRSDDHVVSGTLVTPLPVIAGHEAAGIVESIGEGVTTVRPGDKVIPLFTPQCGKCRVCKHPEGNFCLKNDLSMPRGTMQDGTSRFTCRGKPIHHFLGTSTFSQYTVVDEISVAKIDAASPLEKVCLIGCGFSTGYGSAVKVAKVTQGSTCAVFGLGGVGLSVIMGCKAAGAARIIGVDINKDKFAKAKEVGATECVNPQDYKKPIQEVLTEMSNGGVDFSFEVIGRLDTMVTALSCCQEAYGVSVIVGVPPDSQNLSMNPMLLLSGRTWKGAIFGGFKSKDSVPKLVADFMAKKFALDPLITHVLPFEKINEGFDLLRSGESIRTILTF

Substance	target or system	test	system	conditions	how to read	endpoint	value
GSGAGKETYY	human MAGI1-2/6 PDZ construct (MBP fusion)	automated holdup	peptide, crude extract	concentration not given, corrected by standard peak, unit not given	baseline: biotin control resin, higher = stronger binding	binding intensity	-0.026
B1 (enzyme)	O=C(CO)[C@H](O)[C@H](O)COP(=O)(O)O	steady-state kinetics	–	pH 8.8, 25 °C	–	Km	180 µM
enzyme (Equus caballus, UniProt P00327)	NC(=O)c1ccc[n+]([C@@H]2O[C@H](COP(=O)(O)OP(=O)(O)OC[C@H]3O[C@@H](n4cnc5c(N)ncnc54)[C@H](O)[C@@H]3O)[C@@H](O)[C@H]2O)c1	steady-state kinetics	–	pH 7, 30 °C, cofactor varied	–	Km	105 µM
CYP2C8 (Homo sapiens, UniProt P10632)	CC(C)=CCc1cc2c(cc1O)O[C@H](c1ccc(O)cc1)CC2=O	steady-state kinetics	–	pH 7.4, 37 °C	–	Km	9.68 µM
B2 (enzyme)	O=[N+]([O-])c1ccc(O[C@@H]2O[C@@H](CO)[C@H](O)[C@H]2O)cc1	steady-state kinetics	–	pH 4, 40 °C, apparent	–	Km	56000 µM
B3 (enzyme Y414S/Y415A)	Nc1ncnc2c1ncn2[C@@H]1O[C@H](COP(=O)(O)OP(=O)(O)OP(=O)(O)O)[C@@H](O)[C@H]1O	steady-state kinetics	–	pH 8.5, 25 °C, apparent, anoxic, together with: L-Thr 10 mM	–	Km	379 µM
efeB (Bacillus subtilis, UniProt P39597)	CN(C)c1ccc(C(=C2C=CC(=[N+](C)C)C=C2)c2ccccc2)cc1	steady-state kinetics	–	pH 4, 25 °C, apparent	–	Km	500 µM
KDECVIATEV	human MAGI1-3/6 PDZ construct (MBP fusion)	automated holdup	peptide, crude extract	concentration not given, corrected by standard peak, unit not given	baseline: biotin control resin, higher = stronger binding	binding intensity	0.000699
B4 (enzyme)	Nc1nc2c(ncn2[C@@H]2O[C@H](COP(=O)(O)OP(=O)(O)OP(=O)(O)O)[C@@H](O)[C@H]2O)c(=O)[nH]1	steady-state kinetics	–	pH 7.5, 30 °C	–	Km	34300 µM
enzyme (Bacillus subtilis, UniProt O31986)	CC(=O)N[C@H]1[C@@H](OP(=O)(O)OP(=O)(O)OC[C@H]2O[C@@H](n3ccc(=O)[nH]c3=O)[C@H](O)[C@@H]2O)O[C@H](CO)[C@@H](O)[C@@H]1O	steady-state kinetics	–	pH 7.5, together with: SunA	–	Km	12 µM
B5 (enzyme H130A)	C[S+](CC[C@H](N)C(=O)O)C[C@H]1O[C@@H](n2cnc3c(N)ncnc32)[C@H](O)[C@@H]1O	steady-state kinetics	–	pH 7.9, 37 °C, apparent, together with: 1-200 µM SAM	–	Km	1.4 µM
B6 (CDA)	Nc1ccn([C@H]2C[C@H](O)[C@@H](CO)O2)c(=O)n1	steady-state kinetics	–	pH 7.4, 37 °C	–	Km	31.6 µM

Some of these lines once more:
Substance	target or system	test	system	conditions	how to read	endpoint	value
enzyme (Equus caballus, UniProt P00327)	NC(=O)c1ccc[n+]([C@@H]2O[C@H](COP(=O)(O)OP(=O)(O)OC[C@H]3O[C@@H](n4cnc5c(N)ncnc54)[C@H](O)[C@@H]3O)[C@@H](O)[C@H]2O)c1	steady-state kinetics	–	pH 7, 30 °C, cofactor varied	–	Km	105 µM
CYP2C8 (Homo sapiens, UniProt P10632)	CC(C)=CCc1cc2c(cc1O)O[C@H](c1ccc(O)cc1)CC2=O	steady-state kinetics	–	pH 7.4, 37 °C	–	Km	9.68 µM
